Experimental data from different studies.
Every numbered part comes from another study and shows a few of its results, in no order. Changes are numbered by the printed parent chain.

Set 1
Target: CREB3L3, bZIP domain (human)
Technique: DHFR protein complementation
Matrix: yeast
Notes: single substitutions, most at no-binding floor
Reference: wild-type JUN-FOS pair
Reading: higher = stronger binding
Starting sequence: JUN, bZIP domain (human); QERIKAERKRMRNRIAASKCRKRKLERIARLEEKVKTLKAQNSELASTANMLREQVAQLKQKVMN; partner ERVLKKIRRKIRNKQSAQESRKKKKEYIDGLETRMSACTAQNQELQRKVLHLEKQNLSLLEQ
| Substitution | binding fitness |
| --- | --- |
| S47Y | -1.25 natural log |
| R30W | -1.32 natural log |
| A49K | -1.16 natural log |
| R30G | -1.41 natural log |
| A40T | -1.37 natural log |
| K36M | -1.19 natural log |
| K39P | -1.48 natural log |
| S47R | -1.41 natural log |
| A29S | -1.49 natural log |
| I28R | -1.44 natural log |
| A46W | -1.45 natural log |
| E44M | -1.3 natural log |

Set 2
Target: CCNF, cyclin fold, Cln2 fusion (human)
Technique: yeast growth competition, sequencing
Matrix: yeast
Notes: strong parent motif
Reference: not given
Reading: higher = stronger binding
Starting sequence: RBL1 docking peptide (human); GSAKRRLFGEDPP
| Substitution | normalised enrichment score |
| --- | --- |
| GSAKRRLRGEDPP [F8R] | 0.825 |
| GSANRRLFGEDPP [K4N] | 5.36 |
| GSAKRRLFGEQPP [D11Q] | 7.74 |
| GSDKRRLFGEDPP [A3D] | -0.438 |
| GSAKRELFGEDPP [R6E] | 2.96 |
| GSAKRWLFGEDPP [R6W] | 1.38 |
| GSAKRRLWGEDPP [F8W] | 3.46 |
| GSAKRRLFGEDPF [P13F] | 6.97 |
| GSAKRRLFGEPPP [D11P] | 5.98 |
| GSAKRRLFGEDPL [P13L] | 8.32 |
| GSAKRRLFEEDPP [G9E] | 7.25 |
| GSAKRRLFCEDPP [G9C] | 8.07 |
| GSPKRRLFGEDPP [A3P] | 2.94 |
| GSAKRRLFDEDPP [G9D] | 7.77 |
| ASAKRRLFGEDPP [G1A] | 8.32 |
| GSAKRRLFGEFPP [D11F] | 7.86 |
| GSAKRRLFGEDPK [P13K] | 6.48 |
| HSAKRRLFGEDPP [G1H] | 8.22 |

Set 3
Target: ABI1, truncated, D143A, DHFR fusion (Arabidopsis thaliana)
Technique: DHFR PCA, deep sequencing
Matrix: yeast
Notes: methotrexate growth selection, single substitutions
Together with: (+)-ABA 0.032 µM
Reference: wild-type fitted maximum
Reading: higher = stronger binding
Starting sequence: PYL1, truncated, DHFR fusion (Arabidopsis thaliana); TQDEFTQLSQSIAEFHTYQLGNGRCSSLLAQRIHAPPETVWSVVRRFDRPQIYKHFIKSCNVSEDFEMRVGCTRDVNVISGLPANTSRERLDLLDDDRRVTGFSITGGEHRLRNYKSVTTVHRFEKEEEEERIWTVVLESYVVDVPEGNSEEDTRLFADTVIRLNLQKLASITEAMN; partner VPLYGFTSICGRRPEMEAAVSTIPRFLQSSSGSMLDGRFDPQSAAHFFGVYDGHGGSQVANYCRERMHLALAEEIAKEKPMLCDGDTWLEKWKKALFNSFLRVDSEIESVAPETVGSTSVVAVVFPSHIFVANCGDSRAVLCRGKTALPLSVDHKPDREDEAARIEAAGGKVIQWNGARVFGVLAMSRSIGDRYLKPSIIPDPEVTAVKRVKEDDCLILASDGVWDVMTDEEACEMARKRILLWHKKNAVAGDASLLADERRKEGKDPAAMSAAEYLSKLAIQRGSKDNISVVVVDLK
| Substitution | relative binding score [%] |
| --- | --- |
| T6S | 29.4 |
| F157E | 4.25 |
| K126D | 52.8 |
| V137A | 1.03 |
| M176R | 7.28 |
| G102I | 9.28 |
| V143T | 11.2 |
| T73A | 5.67 |
| L82V | 10.6 |
| E131G | 52.6 |
| G102H | -0.241 |
| Q19K | 42.7 |
| V78G | -0.283 |
| I172L | 11.9 |
| P50W | -4.82 |
| Q167G | 5.8 |
| N22R | 33.9 |
| V78E | -4.11 |
| S80E | -2.42 |
| A13L | 13.1 |
| D159Q | -1.32 |
| L169R | 1.4 |

Set 4
Target: Ras GTPase-activating protein-binding protein 1, RRM domain (G3BP1, Homo sapiens, UniProt Q13283)
UniProt Q13283, sequence (whole entry, looked up): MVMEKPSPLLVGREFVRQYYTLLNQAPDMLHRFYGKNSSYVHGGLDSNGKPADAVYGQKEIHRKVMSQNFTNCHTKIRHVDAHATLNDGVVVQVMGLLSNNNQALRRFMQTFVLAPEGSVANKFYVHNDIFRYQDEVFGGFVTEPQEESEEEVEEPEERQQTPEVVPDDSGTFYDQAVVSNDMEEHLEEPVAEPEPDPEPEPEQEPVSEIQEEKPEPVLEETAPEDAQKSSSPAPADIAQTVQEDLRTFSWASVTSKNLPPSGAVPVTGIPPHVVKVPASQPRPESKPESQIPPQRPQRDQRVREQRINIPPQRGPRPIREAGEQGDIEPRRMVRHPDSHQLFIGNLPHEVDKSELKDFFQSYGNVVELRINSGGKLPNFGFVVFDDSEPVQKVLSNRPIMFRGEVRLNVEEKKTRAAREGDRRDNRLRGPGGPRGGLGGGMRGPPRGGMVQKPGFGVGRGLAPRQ
Technique: RNA Bind-n-Seq
Form: RNA
Matrix: in vitro
Tested at: 1 µM
Notes: whole 134-nt RNA, ends assumed
Together with: 150 mM KCl
Reference: input library
Reading: higher = stronger binding
Constant ends, left off below: GGGAGUUCUACAGUCCGACGAUC … UGGAAUUCUCGGGUGUCAAGG
| Oligonucleotide | log2 enrichment |
| --- | --- |
| UGGGAGGUGGAUUUUGAUUAUUUUUUUAGCUCAUUUCCAGGGGUGGGAAUUUUUUUUUAAUAUGUGUCAUGAAUAAAGUUGUUUUUGAAA | 2.13 |
| UGGGAGGUGGAUUUUGUUUAUUUUUUUAGCUCAUUUCCAGGGGUGGGAAUUUUUUUUUAAUAUGUAUCAUGAAUAAAGUUGUUUUUGAAA | 1.55 |
| UGUGCUACACAUCGUAUGUACCGAAUCGGGGAAAAAAAGGGGAAAAAAAGGGGAAAAAGGGGAAAGUAUUAUGUUACGCCGUUCGGAUCU | 0.784 |
| UUUACCCCUCACUGGAGUCAGAUGAAGACAACCCCAUCUUUAAGUCCCGGUCGAAGAAAAGGAAAGGCUCAGACGACGCUCCCUACAGCC | 0.0733 |
| AUCAUGCAGGUGGGCAUCUUUGGGAAGUGGGGCAAGGGGGGGAUAGGGAGGGGGGUAACACUUUGGGAACAGGUGGUCCCAGGUCGUUUC | -0.563 |
| AGUCCUGUGCUACACAUCGUAUGUACCGAAUCGGGGUGGGGUUUGGGGAAAAAGGGGAAAGUAUUAUGUUACGCCGUUCGGAUCUGCACU | 1.15 |
| AAGUCCUGUGCUACACAUCGUAUGUACCGAAUCGGAAAGGUUUUUUUGGAAAAAGGAAAGUAUUAUGUUACGCCGUUCGGAUCUGCACUU | -0.317 |
| AAGUCCUGUGCUACACAUCGUAUGUACCGAAUCGGUUUUUUUGGAGGUUUUUUUGGAAAGUAUUAUGUUACGCCGUUCGGAUCUGCACUU | -0.403 |
| CAAGUCCUGUGCUACACAUCGUAUGUACCGAAUCGGGCCCGGGGCCCGGCCCGGGGAAAGUAUUAUGUUACGCCGUUCGGAUCUGCACUU | -0.756 |
| CACAAACAACACGCACCCACACAGACACAGAGGGAAGGGGUUGGGAUGGGGACAGGGUGCACAGCAGGGCGGGGUAGGACCCCAGCCCCU | -0.0864 |
| UCAAGUCCUGUGCUACACAUCGUAUGUACCGAAUCGGAAGGGAAGGGGAAGGGGAAAGUAUUAUGUUACGCCGUUCGGAUCUGCACUUCC | 0.289 |
| GCAGGAAGUAAAAACAAAUGGAAAUGCUUCGGAUAGUGGCAGGGGUAAAGGUUGCUAAGGAAAGGGUGGGAUGGGAGUGGGUAAAGAGUU | 1.17 |
| AAGUCCUGUGCUACACAUCGUAUGUACCGAAUCGGGGUUUGGGGUUUGGGUUUGGGAAAGUAUUAUGUUACGCCGUUCGGAUCUGCACUU | 0.37 |
| AAGUCCUGUGCUACACAUCGUAUGUACCGAAUCGGGCCCCGGGCCCCGGCCCCGGGAAAGUAUUAUGUUACGCCGUUCGGAUCUGCACUU | -1.04 |

Set 5
Target: Histone acetyltransferase KAT6A, winged helix 2, GST fusion (KAT6A, Homo sapiens, UniProt Q92794, residues 85-181)
Technique: protein binding microarray
Form: double-stranded DNA, one strand shown
Matrix: in vitro
Tested at: not given
Notes: 8-mer, flanks averaged, mean of 2 arrays, mostly near background
Reference: not given
Reading: higher = stronger binding
Target sequence (chain): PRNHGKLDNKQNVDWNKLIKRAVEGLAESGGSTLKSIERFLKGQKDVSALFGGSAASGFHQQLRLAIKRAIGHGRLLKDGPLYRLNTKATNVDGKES
| Oligonucleotide | E-score |
| --- | --- |
| AAATGACT | -0.119 |
| TACCACCA | -0.111 |
| CATGCTCC | -0.00183 |
| GCCTAGCC | 0.0281 |
| ACAAGGCT | -0.154 |
| AAGCCCGA | 0.0789 |
| AACCTAGG | -0.04 |
| CTTTAGAC | -0.0484 |
| AGTGCCTC | 0.0438 |
| GCCAACGC | 0.152 |
| ACGATGGA | -0.0842 |
| AATGGGAA | -0.0849 |
| GGAGACAA | 0.122 |
| CTACCGTA | -0.206 |
| CTCGCGGA | 0.0106 |
| ATACCCTA | -0.0991 |
| ACAGCATG | -0.0207 |
| GTAACCCA | 0.0588 |
| GGGGACCC | 0.0924 |

Set 6
Target: Prothrombin, mature alpha-thrombin (F2, Homo sapiens, UniProt P00734)
Technique: aptamer microarray, sandwich
Form: DNA with 2'F-ANA
Matrix: in vitro
Tested at: 200 nM
Notes: whole 15-mer aptamer, many near background
Together with: Cy3 exosite-II aptamer, 400 nM
Reading: higher = stronger binding
Oligonucleotide: GGTTGGTGTGGTTGG
| Modification | mean fluorescence intensity |
| --- | --- |
| 2'F-ANA at 2 3 5 6 7 9 10 13 | 50.1 a.u. |
| 2'F-ANA at 2 5 8 11 14 15 | 45.6 a.u. |
| 2'F-ANA at 1 2 3 4 5 15 | 60.9 a.u. |
| 2'F-ANA at 1 3 4 5 6 9 11 12 | 83.7 a.u. |
| 2'F-ANA at 2 7 8 9 10 11 13 15 | 115 a.u. |
| 2'F-ANA at 1 3 4 5 6 7 8 10 11 13 14 | 47.3 a.u. |
| 2'F-ANA at 3 5 6 7 9 10 11 14 | 48.9 a.u. |
| 2'F-ANA at 4 5 7 9 10 11 14 15 | 51.9 a.u. |
| 2'F-ANA at 3 5 6 7 10 12 15 | 58.8 a.u. |
| 2'F-ANA at 1 2 7 9 10 11 12 13 15 | 64.5 a.u. |
| 2'F-ANA at 5 8 9 10 12 13 14 15 | 51.5 a.u. |
| 2'F-ANA at 1 2 7 9 12 13 | 282 a.u. |
| 2'F-ANA at 3 5 7 10 11 12 | 65.5 a.u. |
| 2'F-ANA at 1 2 4 5 6 7 11 12 13 | 119 a.u. |
| 2'F-ANA at 2 4 6 8 9 12 13 14 | 81.4 a.u. |
| 2'F-ANA at 1 3 4 7 8 9 15 | 259 a.u. |
| 2'F-ANA at 2 3 6 7 9 10 11 12 13 14 15 | 222 a.u. |
| 2'F-ANA at 1 4 5 6 7 8 10 12 13 14 15 | 47.3 a.u. |
| 2'F-ANA at 1 5 7 9 12 14 15 | 49.7 a.u. |
| 2'F-ANA at 2 3 5 9 14 15 | 53.4 a.u. |
| 2'F-ANA at 2 3 5 6 7 12 13 15 | 130 a.u. |
